Published values from different studies.
Lines come from different studies, so protocols differ. “And” joins repeats or separate records; there may be more than shown.
Target: Discoidin domain-containing receptor 2 (DDR2, Homo sapiens, UniProt Q16832)
One construct used (Q16832 22-855): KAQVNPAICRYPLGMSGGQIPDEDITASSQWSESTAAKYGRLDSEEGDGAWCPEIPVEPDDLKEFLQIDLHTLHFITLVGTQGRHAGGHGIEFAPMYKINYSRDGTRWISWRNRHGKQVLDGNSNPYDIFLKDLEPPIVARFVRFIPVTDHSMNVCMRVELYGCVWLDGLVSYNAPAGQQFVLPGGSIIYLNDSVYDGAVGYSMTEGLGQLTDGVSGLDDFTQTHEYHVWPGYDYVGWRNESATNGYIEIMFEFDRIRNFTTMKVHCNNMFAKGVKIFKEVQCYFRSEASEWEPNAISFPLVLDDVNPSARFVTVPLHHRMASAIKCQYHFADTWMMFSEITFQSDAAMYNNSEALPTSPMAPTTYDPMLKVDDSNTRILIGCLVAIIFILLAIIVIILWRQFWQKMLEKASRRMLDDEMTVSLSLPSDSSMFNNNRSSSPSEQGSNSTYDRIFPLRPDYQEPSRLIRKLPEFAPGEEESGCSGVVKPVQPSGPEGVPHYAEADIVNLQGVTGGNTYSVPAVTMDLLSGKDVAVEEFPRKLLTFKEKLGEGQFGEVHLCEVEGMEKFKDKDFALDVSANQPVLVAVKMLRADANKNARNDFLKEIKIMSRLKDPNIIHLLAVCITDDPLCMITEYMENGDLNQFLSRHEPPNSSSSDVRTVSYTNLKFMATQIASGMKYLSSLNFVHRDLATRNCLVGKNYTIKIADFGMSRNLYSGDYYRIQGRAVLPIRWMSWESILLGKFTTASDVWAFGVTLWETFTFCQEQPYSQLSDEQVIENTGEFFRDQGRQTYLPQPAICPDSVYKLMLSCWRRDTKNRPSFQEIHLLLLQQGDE

Structure (SMILES) | test | setting | how to read | endpoint | value
O=C=[N][Ru-4]123([n]4c5ccc(O)cc5c5c6c(c7cc(F)c[n+]1c7c54)C(=O)NC6=O)[S+]1CC[S+]2CC[S+]3CC1 (stereo not shown) | enzyme activity | 100 nM, human enzyme, together with: 10 µM ATP | relative to: untreated | remaining activity | 92%
CCN1CCN(Cc2ccc(C(=O)Nc3ccc(C)c(NCc4cnc5[nH]ccc5c4OC)c3)cc2C(F)(F)F)CC1 | binding, competition with immobilised ligand | 1 µM | – | remaining binding | 9.9%
COCC12C(=O)NC3C4(C(OC)CC1O)C1CC5(O)C(OC)C(O)C(OC(C)=O)(C1C5OC(=O)c1ccccc1)C3(O)C(OC)C24 (stereo not shown) | kinase activity, inhibitor, ProQinase kinase profiling | 25 µM | relative to: control | remaining activity | 98% and 99%
CN1CC[C@@H](COc2cnc(C#N)cc2-c2ccn3nc(NC(=O)C4CC4)cc3c2)C1 | enzyme activity, inhibitor | 1 µM | – | inhibition | -3%
Cc1cccc(O[C@H]2CCC[C@@H](C(C)CNCc3ccncc3)C2)c1 (relative stereo) | cell-free assay | 10 µM | – | inhibition | -4%
CNC(=O)c1ccc(C)c(NC(=O)c2cnn3ccccc23)c1 | competition binding | – | relative to: DDR2 over DDR1 | selectivity ratio | 0.42
COc1cc(Nc2nc(C)cc(-c3cnn4nc(OC)ccc34)n2)cc(C(F)(F)F)c1 | inhibitor | 1 µM | relative to: control | remaining activity | 65%
CNC(=O)N1CCN(c2ccc(NC(=O)c3nc(N)sc3-c3ccccc3)cc2C(F)(F)F)CC1 | competition binding | – | relative to: DDR2 over DDR1 | selectivity ratio | > 25
NC(=O)[C@@H](O)C[C@H]1CCc2sc3ncnc(O[C@H]4CC[C@H](N5CCOCC5)CC4)c3c21 | enzyme activity, inhibitor | 10 µM | – | inhibition | 1%
CNC(=O)C[C@H](Cc1ccc(C#N)cc1)NC(=O)c1cc(-c2ccc(CN[C@H](C)c3ccc(C)cc3)o2)ccc1Cl | enzyme activity, inhibitor | 1 µM | – | activity vs control | 117%
CNC(=O)c1ccc2c(c1)nc(-c1cn(CC(=O)c3ccccc3)c3ccccc13)n2CC1CCCCN1C(=O)OC(C)(C)C (stereo not shown) | competition binding | – | relative to: DDR2 over DDR1 | selectivity ratio | 41
Cc1ccc(-c2c(/C=C(\C#N)C(=O)NC(C)C)n(CCCO)c3ncnc(N)c23)cc1 | cell-free assay, competition with immobilised ligand | 1 µM | – | remaining binding | 100%
COc1ccc(NC(=O)Nc2ccc3c(c2)C(=O)N(C(C)CO)CC(C)C(CN(C)Cc2ccc4c(c2)OCO4)O3)cc1 (stereo not shown) | kinase activity, KinaseProfiler | 0.03 µM, species human | relative to: control | remaining activity | 97%
C=CC(=O)N1CCCC(n2c(=O)c3ncccc3n(Cc3ccc(Oc4ccccc4)cc3)c2=O)C1 (stereo not shown) | cell-free assay, competition with immobilised ligand | 1 µM | – | remaining binding | 68%
CC(C)=CC1OC(C)(C)C2C=C3C(=O)C(Cl)=CC(O)C3C3C(O)C4OC4C(=O)C132 (stereo not shown) | cell-free assay, competition with immobilised ligand | 10 µM | – | remaining binding | 88%
C=CC(=O)Nc1cccc(-c2cnc3[nH]cc(C(=O)NC(C)(C)C)c3n2)c1 | enzyme activity, inhibitor | 0.1 µM | – | inhibition | 0%
CN1CCN(Cc2ccc(-c3ccc(CO[C@H]4CCC[C@@H]4NC(=O)c4cc(-c5cnn(C)c5)cnc4N)cc3)cc2)CC1 | enzyme activity, inhibitor | 0.1 µM | – | inhibition | 5%
CNC(=O)c1ccc(CNC(=O)c2cnn3ccccc23)cc1 | competition binding | – | relative to: DDR2 over DDR1 | selectivity ratio | 3.3
Cc1cnc2nc1Nc1cccc(c1)COC/C=C/COCc1cc(ccc1OCCN1CCOCC1)N2 | binding | 0.1 µM | – | remaining binding | 95%
CNC(=O)C1CCN(c2cc(C)c(F)cc2NC(=O)c2ccc(-c3cc(O)ccc3C)c(C)c2)CC1 | binding, competition with immobilised ligand | 1 µM | – | remaining binding | 97%
CNC(=O)C(Cc1c[nH]c2ncccc12)NC(=O)C(OC)c1ccc(Oc2ccccc2)cc1 (stereo not shown) | competition binding | – | relative to: DDR2 over DDR1 | selectivity ratio | 21
C=CC(=O)N1CCc2ccc(-n3c(=O)ccc4cnc5ccc(-c6cnn(C)c6)cc5c43)cc21 | KINOMEscan | 1 µM | relative to: DMSO control | remaining binding | 93%

A few entries again:
Structure (SMILES) | test | setting | how to read | endpoint | value
C=CC(=O)Nc1cccc(-c2cnc3[nH]cc(C(=O)NC(C)(C)C)c3n2)c1 | enzyme activity, inhibitor | 0.1 µM | – | inhibition | 0%
NC(=O)[C@@H](O)C[C@H]1CCc2sc3ncnc(O[C@H]4CC[C@H](N5CCOCC5)CC4)c3c21 | enzyme activity, inhibitor | 10 µM | – | inhibition | 1%
COc1cc(Nc2nc(C)cc(-c3cnn4nc(OC)ccc34)n2)cc(C(F)(F)F)c1 | inhibitor | 1 µM | relative to: control | remaining activity | 65%
